Published values from different studies.
± marks the error that the study gave.
Chain of UniProt P03023 (whole entry, unmodified, looked up): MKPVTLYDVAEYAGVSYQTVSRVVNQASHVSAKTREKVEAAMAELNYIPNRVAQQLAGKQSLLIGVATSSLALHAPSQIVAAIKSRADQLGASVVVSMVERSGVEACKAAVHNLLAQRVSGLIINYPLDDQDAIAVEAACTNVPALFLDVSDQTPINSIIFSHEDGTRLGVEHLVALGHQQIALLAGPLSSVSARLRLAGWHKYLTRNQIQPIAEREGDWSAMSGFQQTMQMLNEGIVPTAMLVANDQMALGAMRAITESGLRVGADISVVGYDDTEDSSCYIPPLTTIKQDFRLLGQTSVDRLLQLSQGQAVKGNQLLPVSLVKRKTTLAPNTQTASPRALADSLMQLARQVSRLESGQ
Chain of UniProt Q8NER1 (whole entry, looked up): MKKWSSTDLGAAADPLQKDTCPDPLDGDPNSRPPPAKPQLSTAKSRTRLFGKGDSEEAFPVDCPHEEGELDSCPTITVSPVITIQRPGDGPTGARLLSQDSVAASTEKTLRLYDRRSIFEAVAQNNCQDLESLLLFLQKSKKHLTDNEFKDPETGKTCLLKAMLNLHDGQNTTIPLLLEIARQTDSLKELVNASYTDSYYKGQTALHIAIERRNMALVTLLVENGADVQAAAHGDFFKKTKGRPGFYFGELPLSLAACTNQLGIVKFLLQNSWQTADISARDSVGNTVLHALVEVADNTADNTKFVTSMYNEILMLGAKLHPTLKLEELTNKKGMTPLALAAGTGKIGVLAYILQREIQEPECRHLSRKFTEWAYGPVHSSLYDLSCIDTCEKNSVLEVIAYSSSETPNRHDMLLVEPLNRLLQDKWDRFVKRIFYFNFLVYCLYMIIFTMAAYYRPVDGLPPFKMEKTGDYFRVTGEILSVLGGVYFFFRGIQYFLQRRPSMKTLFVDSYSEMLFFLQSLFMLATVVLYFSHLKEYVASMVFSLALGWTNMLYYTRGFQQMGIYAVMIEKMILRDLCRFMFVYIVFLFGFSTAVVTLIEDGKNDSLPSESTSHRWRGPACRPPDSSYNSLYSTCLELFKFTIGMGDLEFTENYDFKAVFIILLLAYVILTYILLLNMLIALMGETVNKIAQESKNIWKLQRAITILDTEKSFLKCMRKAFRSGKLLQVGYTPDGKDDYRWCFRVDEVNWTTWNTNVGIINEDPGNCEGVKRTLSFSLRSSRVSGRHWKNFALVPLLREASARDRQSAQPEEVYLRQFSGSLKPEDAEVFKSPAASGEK
Chain of UniProt Q14831 (whole entry, looked up): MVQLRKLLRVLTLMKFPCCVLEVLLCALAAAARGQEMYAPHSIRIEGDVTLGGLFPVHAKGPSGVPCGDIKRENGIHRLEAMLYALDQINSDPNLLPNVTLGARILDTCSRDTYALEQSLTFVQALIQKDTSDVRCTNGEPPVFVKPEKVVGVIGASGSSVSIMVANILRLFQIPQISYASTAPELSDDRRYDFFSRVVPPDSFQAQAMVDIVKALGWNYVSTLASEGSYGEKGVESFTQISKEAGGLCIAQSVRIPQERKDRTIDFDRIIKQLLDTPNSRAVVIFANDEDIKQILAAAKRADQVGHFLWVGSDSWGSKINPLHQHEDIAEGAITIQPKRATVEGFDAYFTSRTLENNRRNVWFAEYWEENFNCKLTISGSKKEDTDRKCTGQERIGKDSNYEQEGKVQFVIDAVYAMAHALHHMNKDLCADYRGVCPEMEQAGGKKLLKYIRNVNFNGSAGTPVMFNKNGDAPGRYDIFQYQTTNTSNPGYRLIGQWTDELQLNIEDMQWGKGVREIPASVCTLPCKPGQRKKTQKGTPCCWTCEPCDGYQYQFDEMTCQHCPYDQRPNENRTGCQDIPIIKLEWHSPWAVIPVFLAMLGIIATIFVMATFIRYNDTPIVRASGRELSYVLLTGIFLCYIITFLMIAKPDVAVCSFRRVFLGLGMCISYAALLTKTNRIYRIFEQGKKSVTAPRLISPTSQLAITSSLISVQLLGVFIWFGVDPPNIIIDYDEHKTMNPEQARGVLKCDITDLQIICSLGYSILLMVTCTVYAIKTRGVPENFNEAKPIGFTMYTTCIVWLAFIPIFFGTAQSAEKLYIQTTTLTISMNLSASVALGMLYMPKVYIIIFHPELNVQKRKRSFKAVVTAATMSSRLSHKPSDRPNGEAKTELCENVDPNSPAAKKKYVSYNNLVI
Chain of UniProt Q9Y2C9 (whole entry, looked up): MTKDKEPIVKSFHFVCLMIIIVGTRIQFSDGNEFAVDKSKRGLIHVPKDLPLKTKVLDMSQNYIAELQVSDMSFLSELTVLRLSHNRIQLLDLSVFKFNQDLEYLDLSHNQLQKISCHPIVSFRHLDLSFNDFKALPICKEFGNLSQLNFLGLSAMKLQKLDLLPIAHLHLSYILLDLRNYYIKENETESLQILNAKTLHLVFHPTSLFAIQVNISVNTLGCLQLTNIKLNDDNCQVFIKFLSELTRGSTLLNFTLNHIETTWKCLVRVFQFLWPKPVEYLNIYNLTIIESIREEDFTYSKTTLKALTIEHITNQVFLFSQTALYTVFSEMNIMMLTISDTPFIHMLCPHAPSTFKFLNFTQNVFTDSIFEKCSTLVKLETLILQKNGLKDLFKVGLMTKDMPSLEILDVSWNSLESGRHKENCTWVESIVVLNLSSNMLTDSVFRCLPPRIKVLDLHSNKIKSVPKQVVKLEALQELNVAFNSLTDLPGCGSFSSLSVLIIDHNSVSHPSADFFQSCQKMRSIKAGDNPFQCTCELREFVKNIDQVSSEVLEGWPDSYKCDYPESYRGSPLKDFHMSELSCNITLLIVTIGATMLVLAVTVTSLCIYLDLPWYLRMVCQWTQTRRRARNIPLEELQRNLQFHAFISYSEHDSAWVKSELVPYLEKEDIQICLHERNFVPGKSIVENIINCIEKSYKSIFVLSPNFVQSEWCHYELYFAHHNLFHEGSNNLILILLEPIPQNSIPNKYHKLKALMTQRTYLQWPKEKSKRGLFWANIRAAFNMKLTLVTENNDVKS
Chain of UniProt P04756 (whole entry, looked up): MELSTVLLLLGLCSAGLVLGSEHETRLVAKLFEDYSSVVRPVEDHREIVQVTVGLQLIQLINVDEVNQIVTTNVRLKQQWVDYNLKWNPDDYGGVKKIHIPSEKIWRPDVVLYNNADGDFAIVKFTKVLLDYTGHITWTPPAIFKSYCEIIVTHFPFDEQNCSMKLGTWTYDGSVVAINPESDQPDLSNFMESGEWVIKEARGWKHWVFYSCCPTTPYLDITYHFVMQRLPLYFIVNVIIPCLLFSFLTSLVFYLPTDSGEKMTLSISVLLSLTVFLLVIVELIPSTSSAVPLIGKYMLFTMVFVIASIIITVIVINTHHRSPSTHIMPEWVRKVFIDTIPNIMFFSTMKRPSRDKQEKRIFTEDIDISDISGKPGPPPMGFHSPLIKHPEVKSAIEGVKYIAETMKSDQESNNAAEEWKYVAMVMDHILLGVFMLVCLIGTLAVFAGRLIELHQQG
Chain of UniProt P02716 (whole entry, looked up): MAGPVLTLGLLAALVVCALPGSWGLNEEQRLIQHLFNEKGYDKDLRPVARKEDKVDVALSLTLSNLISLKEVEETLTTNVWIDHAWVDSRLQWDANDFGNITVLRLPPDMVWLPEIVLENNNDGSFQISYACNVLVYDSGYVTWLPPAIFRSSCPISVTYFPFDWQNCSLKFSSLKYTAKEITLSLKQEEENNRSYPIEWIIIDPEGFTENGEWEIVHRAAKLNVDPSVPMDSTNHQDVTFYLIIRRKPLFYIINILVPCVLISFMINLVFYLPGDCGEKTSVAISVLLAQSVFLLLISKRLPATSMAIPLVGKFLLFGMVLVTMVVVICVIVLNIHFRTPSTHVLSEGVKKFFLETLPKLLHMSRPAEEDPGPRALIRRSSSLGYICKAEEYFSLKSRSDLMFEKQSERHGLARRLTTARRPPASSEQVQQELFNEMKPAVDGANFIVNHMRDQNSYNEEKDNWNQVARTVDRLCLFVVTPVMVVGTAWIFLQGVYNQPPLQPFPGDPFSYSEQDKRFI
Chain of UniProt P28222 (whole entry, looked up): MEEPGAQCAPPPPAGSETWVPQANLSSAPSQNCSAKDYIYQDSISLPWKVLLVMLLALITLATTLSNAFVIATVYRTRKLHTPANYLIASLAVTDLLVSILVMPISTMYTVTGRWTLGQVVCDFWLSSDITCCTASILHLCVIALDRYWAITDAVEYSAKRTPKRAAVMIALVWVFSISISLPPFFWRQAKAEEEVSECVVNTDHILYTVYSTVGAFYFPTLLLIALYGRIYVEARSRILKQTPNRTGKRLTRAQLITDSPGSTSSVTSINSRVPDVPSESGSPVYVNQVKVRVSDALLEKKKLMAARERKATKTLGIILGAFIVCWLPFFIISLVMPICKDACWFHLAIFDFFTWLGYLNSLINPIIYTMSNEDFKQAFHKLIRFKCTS
Chain of UniProt P20782 (whole entry, looked up): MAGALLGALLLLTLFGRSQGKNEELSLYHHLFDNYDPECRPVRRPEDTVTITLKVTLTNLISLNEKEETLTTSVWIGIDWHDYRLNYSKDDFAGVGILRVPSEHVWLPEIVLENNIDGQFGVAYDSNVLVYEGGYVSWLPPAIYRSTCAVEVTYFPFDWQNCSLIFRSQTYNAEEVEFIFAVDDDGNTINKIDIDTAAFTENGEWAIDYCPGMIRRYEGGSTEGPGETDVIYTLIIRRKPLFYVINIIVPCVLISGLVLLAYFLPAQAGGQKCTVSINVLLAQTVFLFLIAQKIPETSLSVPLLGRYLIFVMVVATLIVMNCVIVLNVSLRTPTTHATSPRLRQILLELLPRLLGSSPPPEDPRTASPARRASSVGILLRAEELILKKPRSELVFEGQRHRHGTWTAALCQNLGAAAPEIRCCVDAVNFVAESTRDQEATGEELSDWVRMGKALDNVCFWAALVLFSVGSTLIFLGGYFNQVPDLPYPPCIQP

SMILES	tested on	assay	system	setting	quantity	value
Nc1ccn([C@@H]2O[C@H](COP(=O)(O)OP(=O)(O)OP(=O)(O)O)[C@@H](O)[C@H]2O)c(=O)n1	P2X purinoceptor 3 (P2RX3, Homo sapiens, UniProt P56373)	ion current, agonist, patch clamp	HEK293 expressing wild-type	–	EC50	14.8 ± 3.9 µM
COc1cc2c(Oc3ccc4[nH]c(C)cc4c3F)ccnc2cc1OCC1(N)CC1	–	–	paediatric refractory sarcoma patients	12 mg	Proteinuria incidence	0%
CCCCCCCC/C=C\CCCCCCCC(=O)NCc1ccc(O)c(OC)c1	Transient receptor potential cation channel subfamily V member 1 (TRPV1, Homo sapiens, UniProt Q8NER1)	Ca2+ influx, agonist, BRET	HEK-293T	–	EC50	0.295 µM
C[C@H](C(=O)N[C@H]1COc2ccccc2[C@@H]1S(C)(=O)=O)c1ccc(F)cc1	Metabotropic glutamate receptor 7 (GRM7, Homo sapiens, UniProt Q14831)	agonist, CellKey impedance	CHO cells expressing mGluR7	–	EC50	0.08 µM
C[C@@]1(O)CC[C@@]2(C)[C@@H](CC[C@@H]3[C@@H]2CC[C@]2(C)[C@@H]([N+](=O)[O-])CC[C@@H]32)C1	GABAA receptor (rat)	enhancement of [3H]flunitrazepam binding, positive modulator	rat cerebral cortex homogenate	together with: GABA 1.0 µM	EC50	0.0335 ± 0.0049 µM
CO/N=C1\C[C@]2(C[C@@H]3C[C@@H](C/C=C(\C)C[C@@H](C)/C=C/C=C4\CO[C@@H]5[C@H](O)C(C)=C[C@@H](C(=O)O3)[C@]45O)O2)O[C@H](/C(C)=C/C(C)C)[C@H]1C	Nuclear receptor subfamily 1 group I member 2 (NR1I2, Homo sapiens, UniProt O75469)	–	–	–	EC50	6.21 ± 2.59 µM
N[C@@H](CCP(=O)(O)O)C(=O)O	Metabotropic glutamate receptor 6 (Homo sapiens, UniProt O15303)	IP accumulation, agonist, HTRF	cells expressing chimeric Gq/i receptor	dark	EC50	1.38 µM
CC[N+]1(C)CCN(c2ccccc2Cl)CC1	Nicotinic acetylcholine receptor alpha1/beta1/epsilon/delta (Mus musculus, UniProt P02716+P04756+P09690+P20782)	agonist	–	–	EC50	11 ± 2.07 µM
C[C@H]1O[C@@H](Oc2ccccc2[N+](=O)[O-])[C@H](O)[C@@H](O)[C@H]1O	lacI (Escherichia coli, UniProt P03023, D149A)	operator DNA binding, nitrocellulose filter binding	–	together with: O1 operator DNA	EC50	45 ± 2.9 µM
COc1cc(C(=O)N2CC[C@@H](O)[C@@H](N)C2)cc2nc(-c3cc4ccccc4n3CC3CC3)n(C)c12	5-hydroxytryptamine receptor 1B (HTR1B, Homo sapiens, UniProt P28222)	agonist, GTPγS binding	–	–	EC50	20 µM
CCCCCCCCCCCCCCCC(=O)OCC(CSCC(N)C(=O)NC(CO)C(=O)NCCCN(C)C)OC(=O)CCCCCCCCCCCCCCC (stereo not shown)	TLR2/TLR6 (Homo sapiens, UniProt O60603+Q9Y2C9)	reporter gene, agonist	HEK-Blue hTLR2/6 cells	–	EC50	0.00031 ± 0.000308 µM
C[C@]12CC[C@H](O)C[C@@H]1CC[C@@H]1[C@@H]2CC[C@]2(C)[C@@H]([N+](=O)[O-])CC[C@@H]12	GABAA receptor (rat)	enhancement of [3H]flunitrazepam binding, positive modulator	rat cerebral cortex homogenate	together with: GABA 1.0 µM	EC50	> 10 µM
OC[C@H]1O[C@@H](OCCc2ccccc2)[C@H](O)[C@@H](O)[C@H]1O	lacI (Escherichia coli, UniProt P03023, D149C)	operator DNA release, nitrocellulose filter binding	–	together with: O1 operator DNA	EC50	> 1000 µM

For quick reference, copied from above:
SMILES	tested on	assay	system	setting	quantity	value
N[C@@H](CCP(=O)(O)O)C(=O)O	Metabotropic glutamate receptor 6 (Homo sapiens, UniProt O15303)	IP accumulation, agonist, HTRF	cells expressing chimeric Gq/i receptor	dark	EC50	1.38 µM
CC[N+]1(C)CCN(c2ccccc2Cl)CC1	Nicotinic acetylcholine receptor alpha1/beta1/epsilon/delta (Mus musculus, UniProt P02716+P04756+P09690+P20782)	agonist	–	–	EC50	11 ± 2.07 µM
